Assay results gathered from unrelated publications.
A part holds a random share of what one study measured.

Study 1
Target: Interferon regulatory factor 5, full length, phosphomimetic (IRF5, Homo sapiens, UniProt Q13568-2, residues 1-514, K96S/S451D/S453D/S456D/S462D)
Method: protein-binding microarray
Form: double-stranded DNA, one strand shown
Sample: in vitro
Tested at: 250 nM
Setting: 60-bp whole probe
With: salmon DNA 0.4 mg/ml
Baseline: random background probes
Direction: higher = stronger binding
Quantity: log fluorescence
Constant ends, left off below: GCCTAGCAC … GTCTTGATTCGCTTGACGCTGCTG
TTAGGACTGCTCTTCCTTTAGTGCTAG: -0.219 z-score
CCACTCTTCCTTTACTTTCTGTGCTAG: 2.74 z-score
TGTGGACCTTGGGAGATTTCGTGCTAG: 0.0117 z-score
TTAGATTTCGGACTGGATTAGTGCTAG: 2.4 z-score
CGCTTTTTTTTTTTTTTTTTGTGCTAG: 0.772 z-score
GACGGTCTCCTTCTCCTGACGTGCTAG: -0.3 z-score
GTAGATTCCAGTTTCGATTAGTGCTAG: 9.36 z-score
TAAGGACTGGACTATCGGTTAGTGCTA: 5.71 z-score
GACGGTATCCTTCTCCGGACGTGCTAG: 0.199 z-score
TATATTCTATTCCTTTAACAGTGCTAG: 1.27 z-score
GACGAACTGGGGACTGGACACGTGCTA: -0.232 z-score
GTAGGACTGGGTCTCGGTTAGTGCTAG: -0.54 z-score
TTAGTTCTCGGACTGGGTTAGTGCTAG: 0.0157 z-score
TTAGGTCTCGGACTGGCTTAGTGCTAG: -0.212 z-score
GAGGATTTCGGGACTGGAGACGTGCTA: 0.99 z-score
TAGATCGTCCCTTTGAGAGGGTGCTAG: -0.316 z-score
GACGGTTTCGGCTTTCGGGACGTGCTA: 7.64 z-score
GACGGTCTCGGTCTCGGGTCGTGCTAG: 0.512 z-score
TTTGCTTTCCTTCATGCACTGTGCTAG: 1.68 z-score
CAATTCCTGAAATCTCTTTCCGTGCTA: 0.82 z-score
GACGGTATCTGGTATCGGGACGTGCTA: 1.69 z-score
TCATATTTACCTCTCACACTGTGCTAG: 0.433 z-score

Study 2
Target: RNA binding protein fox-1 homolog 2, RRM domain, GST-SBP tag (RBFOX2, Homo sapiens, UniProt O43251-10, residues 100-194)
Method: RNA Bind-n-Seq
Form: RNA
Sample: in vitro
Tested at: 365 nM
Setting: natural RNA segment, single round, ends assumed
Baseline: no-protein control
Direction: higher = stronger binding
Quantity: RBNS enrichment (R)
Target sequence (chain): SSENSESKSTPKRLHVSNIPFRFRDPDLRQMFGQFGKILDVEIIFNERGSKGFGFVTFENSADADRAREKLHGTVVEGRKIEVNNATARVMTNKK
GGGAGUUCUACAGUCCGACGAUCGCCCAUUCCAGCUGGAGUCGUGGGGCUGGGCACAGGGGAAUUUUUCCAGAGCUGAGCCUGACGUCUGCUCUGAAGAAUGCUUAGAAGGUUCCCAGACACCAGAGCCAGAUUGGAAUUCUCGGGUGCCAA: 1.67
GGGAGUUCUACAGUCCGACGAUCCUGUCAAGAGGCUUGGCUCUUCAAGACUCAGUGUCCACUUUAUCAAAUGUGACCGGUGUAGCUGUAGUUUGUACUUUCCUGGGGACCUUCUGCUGGGGUUUGUGUAAGCUUGGAAUUCUCGGGUGCCAA: 0.517
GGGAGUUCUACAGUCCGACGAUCUGAGGGCUCCAAGGCCGGAAGUCCUCCCUUCCUCCCUGUCUGCUCUCAUGCUCUCCGCCCUGUUCUAUCUGGCACUUCCCAGGCACAGAGGCCCCUUCAGGUUCCUGGGUUGGAAUUCUCGGGUGCCAA: 0.313
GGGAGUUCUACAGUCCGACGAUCUAAGAUAAAUGAGGGGGAAAAAAACUAAAAAUAUGCUUUUGUCCCAAAUAUCUCAUUUUACAAGGUAGUUUAAAUUGUGUUAAAAUCACUAGCAAGAAGUAUAUAUUUUCUGGAAUUCUCGGGUGCCAA: 0.668
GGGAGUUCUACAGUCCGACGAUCAAAGAAAGGAUACAGGGGAAGUGGACCUGUUUAGAAAUGGUUCUUUGGAGCAGAUCCUGUCUGCAUUAUCAGGAAACCAGCAAUUCAGUUCACGGGUCAGCAGUGGCAGCUGGAAUUCUCGGGUGCCAA: 0.526
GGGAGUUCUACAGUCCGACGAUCUAGCUGGGGAUUACAGGUGCCUACCAGCAUGCUCGGCUAAUUUUUUUGUAUUUUUAGUAGAGAAGGGAUUUCACCAUGUUGGCCGGGCUGGUCUCAAACUCCUAAGGUCAUGGAAUUCUCGGGUGCCAA: 1.32
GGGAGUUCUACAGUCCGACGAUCCUUUCAGGGUAAUAAAGUGGGGAAAAGGAACGUCUUCUCAAUGCAAGAACAUAAGCUUUCUCGUAUAUACCUGUAUGCUACAGUUUUUCACAUGGAAUUCCGUUUUCUGAUGGAAUUCUCGGGUGCCAA: 0.319
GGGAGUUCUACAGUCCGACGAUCACAUUGGCCUAUUAUAAUCUGUGUUGGUUAUUUUUCUCCUGUAAGCAUCCUGAUUUUUCUGUAGGAACUUUUCUUUGGCAGACCAAGUGAAGACUCAGGAAUGGUGUGCAUGGAAUUCUCGGGUGCCAA: 13.5
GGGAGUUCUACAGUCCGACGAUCGCCUCCCUCCCGCGGGAGGUUUCUCCUCUUUUUGAAAAUUCCGUCUGUGGGAUUUUUAGACAUUUUUCGACAUCAGGGUAUUUGUUCCACCUUGGCCAGGCCUCCUCGGAUGGAAUUCUCGGGUGCCAA: 0.472
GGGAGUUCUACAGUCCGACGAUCCAGUGAGCUCAGGUGUCUCAAAGAAGGGUGGAAGUUCUAAUGUCUGUUAGCUACCCAUAAGAAUGCUGUUUGCUGCAGUUCUGUGUCCUGUGCUUGGAUGCUUUUUAUAAUGGAAUUCUCGGGUGCCAA: 2.87
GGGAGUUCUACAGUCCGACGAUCGGCAUGGUAAAUAAUAUAUCAAUGUUUAUGUAGUCUGUUACAGAAACAGCUAUAGAUAACAUUAUCCAGUGAAGAGCAAAAUUCAAGCUUUAGAAAAUAUUCAUGCAUGCUGGAAUUCUCGGGUGCCAA: 0.894
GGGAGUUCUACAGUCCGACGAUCUGUGCAUUUUCACCUGAGGUUUCCCUGCAUCCCUGCAGUGCCAAAGCCCCACCUUCAGGGACCACCUGGAAUGUGUGAGGGGCUGACAGCACAGUAACGUGCAUACAUAUUGGAAUUCUCGGGUGCCAA: 0.408

Study 3
Target: RING finger protein unkempt homolog, zinc fingers 1-6, GST-SBP tag (UNK, Homo sapiens, UniProt Q9C0B0, residues 30-357)
Method: RNA Bind-n-Seq
Form: RNA
Sample: in vitro
Tested at: not given
Setting: RNA with constant flanks, human and mouse sites, ends assumed
Baseline: input RNA pool
Direction: higher = stronger binding
Quantity: bound/input enrichment
Construct (chain): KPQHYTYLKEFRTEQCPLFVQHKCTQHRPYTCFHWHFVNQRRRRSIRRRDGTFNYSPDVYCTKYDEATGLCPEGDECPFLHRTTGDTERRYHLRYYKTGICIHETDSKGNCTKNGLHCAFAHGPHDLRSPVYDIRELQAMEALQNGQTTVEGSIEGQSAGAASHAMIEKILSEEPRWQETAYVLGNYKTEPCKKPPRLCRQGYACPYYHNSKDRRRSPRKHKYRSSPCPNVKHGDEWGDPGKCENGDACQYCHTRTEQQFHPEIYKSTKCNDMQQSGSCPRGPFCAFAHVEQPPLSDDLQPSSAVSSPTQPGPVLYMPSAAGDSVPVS
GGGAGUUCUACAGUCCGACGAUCAAUGCUGCCAGCUUUUUCUUUUUCUUUCUUUUUUUUUUUUUUUUUUCCUUCCAGGGCCGUUUUCUGAUAUAUGUUGGGUAUCAUAGAGUGAAUCUCAGAACAGGAAGCGGAGGCAUAAGCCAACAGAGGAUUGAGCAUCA: 1.98 ratio
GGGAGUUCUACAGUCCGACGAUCACCAUUAAACUGAAUCAGAAAUCCAUUUUCUGGCUGAAUAAAAAGUUUGGCUUGCCUGUGUAAUGCCCACUCCCUUCCCCCUGGCUCCCUAGUGAUGGGACAUAUAUGAGAGAGAAGUGUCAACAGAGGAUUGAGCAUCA: 0.205 ratio
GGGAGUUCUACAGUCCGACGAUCAUGCAAACUCGGAAAAACCGUAAGAAUGAUGAAGCCUCAUAUGAGAAAAUGCUCAAGCUGCGCCGCGAUCUCAGCCGGGCUGUCACCAUCCUGGAAAUGAUCAAGAGACGGGAGAAGAGUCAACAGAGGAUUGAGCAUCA: 0.128 ratio
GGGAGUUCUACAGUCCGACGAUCUUCUUUUCUGAAACCUUGUUUAACUGCCUUGCUUAUGGACCAGAAAAUACUCUACCAACUUUGGAUGAUGUAUCAGACAUUGAUGUUGCACAGAUUAUAAUCAAGAUAGAUUCUGCAACUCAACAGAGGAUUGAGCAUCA: 0.18 ratio
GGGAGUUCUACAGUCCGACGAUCGAAGGGGAGCACCAUGAGAAAGCGGUAGAGCUACUGAAAGCAGCCCAAGGGAAGGUUAAAUUAGUCGUACGGUACACACCAAAAGUCUUGGAAGAAAUGGAGUCCCGCUUUGAGAAAAUGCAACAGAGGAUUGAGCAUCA: 0.406 ratio
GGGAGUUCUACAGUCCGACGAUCAACUAUGAUAUCUGCACAGAAAUACUGCAGAGCUCCAGUGCUAUCCAAGCCCAGGCAGGGGCUGAGCAAGGGGACAUAGUCAUCCGGCUGCCCAACCUUCACAAUGACUCCGUUGUCUCUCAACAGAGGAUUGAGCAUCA: 0.0972 ratio
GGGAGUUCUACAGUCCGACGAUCAUCUCUUUUGGUUUUGAUAAUCUGAAGUGUUUUUUUCUCGUUUUGGCCUUCCAAACUGCAUUUGGUUAGGUGAAUUAAGAAAAAUAUUGCCAUCAAGAAUUACUUGUGUUUUCACAGAGACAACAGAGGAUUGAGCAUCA: 0.172 ratio
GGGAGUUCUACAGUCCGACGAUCAGUUGUAGCUGCUGUCACUGACUCCCGGCUAUACAUGGCCUGUCGACCACGUUAUAGCCCUCAGGCCUGUUGAACUUGCUCUCUAAGAGAGGUUGGGACCAGGCUAGGUUCCGGGUGACGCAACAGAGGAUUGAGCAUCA: 0.0751 ratio
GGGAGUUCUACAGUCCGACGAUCAAAGAUAAAUUCGCAAAGGCCAAAGAAUUUGGAGCCUCUGAAUGUAUUAGCCCCCAAGACUUCAGUAAAUCCAUCCAGGAAGUCCUCGUUGAGAUGACAGAUGGGGGCGUGGAUUACUCCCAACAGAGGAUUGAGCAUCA: 0.185 ratio
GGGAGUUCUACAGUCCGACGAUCCUGAGGAUACCACUGAAGAGACCUUAAAAGAAUCAUUUGAGGGCUCUGUUCGUGCAAGAAUAGUCACUGAUCGGGAAACUGGUUCUUCCAAAGGGUUUGGUUUUGUAGACUUUAAUAGUGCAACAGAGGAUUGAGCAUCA: 0.769 ratio
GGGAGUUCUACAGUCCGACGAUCGUUGAGUUGGCUUUGGUUGUCAUGAAGGAUCUUAGUCAGAAUUUUCCUACCAAAGCCAGAGCAAUAACAAAAACAGCUGUGAGCUCAGAACUUAGAACCGAAGUGGAAGAGAAUCAGAAGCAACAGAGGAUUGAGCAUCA: 0.576 ratio

Study 4
Target: Sal-like protein 4, full length isoform B (SALL4, Homo sapiens, UniProt Q9UJQ4-2, residues 1-616)
Method: universal PBM
Form: double-stranded DNA, one strand shown
Sample: in vitro
Tested at: not given
Setting: 8-mer, flanks averaged, mean of replicates
Direction: higher = stronger binding
Quantity: E-score
Residues (chain): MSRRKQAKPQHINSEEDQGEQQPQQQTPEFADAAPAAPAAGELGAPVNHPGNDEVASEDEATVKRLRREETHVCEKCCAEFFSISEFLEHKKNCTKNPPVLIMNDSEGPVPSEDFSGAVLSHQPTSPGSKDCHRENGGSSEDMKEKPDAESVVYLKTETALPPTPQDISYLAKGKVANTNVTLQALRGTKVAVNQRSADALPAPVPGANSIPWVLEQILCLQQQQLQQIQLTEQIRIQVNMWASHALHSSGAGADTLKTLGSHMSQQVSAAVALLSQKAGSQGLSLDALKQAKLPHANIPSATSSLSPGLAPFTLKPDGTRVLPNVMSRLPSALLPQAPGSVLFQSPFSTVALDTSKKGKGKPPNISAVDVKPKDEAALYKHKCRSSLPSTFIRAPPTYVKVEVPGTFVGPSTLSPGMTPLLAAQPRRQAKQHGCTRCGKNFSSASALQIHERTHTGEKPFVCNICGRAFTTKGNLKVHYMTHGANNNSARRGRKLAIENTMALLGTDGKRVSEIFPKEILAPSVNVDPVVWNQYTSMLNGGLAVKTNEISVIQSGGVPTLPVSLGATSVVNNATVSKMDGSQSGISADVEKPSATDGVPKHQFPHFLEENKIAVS
CCCACTAA: -0.0111
ACCGTTGC: -0.179
AGACGCGC: -0.241
GAGAGGAA: -0.0434
ATGTCCGG: -0.175
AGGCATAT: 0.23
AAAAGGTT: 0.025
AGCAAAGG: -0.116
CCTAAGGA: -0.011
GTGTTTTA: 0.188
ACTGCCCT: -0.159
ATTCGGAG: -0.0958
ATTGAAAG: 0.146
ATACTTGG: 0.082
TCCCGTCA: -0.0761
AGATTTTG: 0.182
GTGGGAGA: -0.137
AGCGTCCA: -0.203
AACCACTG: -0.0248
GTAAAAAA: 0.241
CATTTGCC: -0.143
